Assay results of several laboratories.
A part holds a random share of what one study measured.
UniProt Q15349, sequence (whole entry, looked up): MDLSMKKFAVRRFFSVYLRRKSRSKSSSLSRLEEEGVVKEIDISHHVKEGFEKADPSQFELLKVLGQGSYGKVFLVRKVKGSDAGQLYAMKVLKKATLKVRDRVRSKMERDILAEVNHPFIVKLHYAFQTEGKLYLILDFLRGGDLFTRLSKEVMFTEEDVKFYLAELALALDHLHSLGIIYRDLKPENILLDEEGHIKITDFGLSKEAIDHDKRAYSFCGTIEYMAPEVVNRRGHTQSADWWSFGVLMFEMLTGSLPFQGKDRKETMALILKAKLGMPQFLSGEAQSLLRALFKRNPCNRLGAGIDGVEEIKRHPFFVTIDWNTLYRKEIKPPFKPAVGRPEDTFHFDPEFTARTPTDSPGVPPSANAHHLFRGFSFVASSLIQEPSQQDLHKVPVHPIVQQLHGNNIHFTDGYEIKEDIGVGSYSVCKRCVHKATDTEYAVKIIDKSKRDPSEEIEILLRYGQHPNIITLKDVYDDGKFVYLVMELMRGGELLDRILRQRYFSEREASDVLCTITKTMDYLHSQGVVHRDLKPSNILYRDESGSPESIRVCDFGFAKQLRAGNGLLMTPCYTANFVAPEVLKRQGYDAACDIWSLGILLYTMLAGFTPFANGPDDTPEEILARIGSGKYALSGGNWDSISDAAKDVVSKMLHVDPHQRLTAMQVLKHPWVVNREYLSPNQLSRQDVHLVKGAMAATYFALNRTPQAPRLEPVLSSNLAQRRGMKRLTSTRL
UniProt Q06187, sequence (whole entry, looked up): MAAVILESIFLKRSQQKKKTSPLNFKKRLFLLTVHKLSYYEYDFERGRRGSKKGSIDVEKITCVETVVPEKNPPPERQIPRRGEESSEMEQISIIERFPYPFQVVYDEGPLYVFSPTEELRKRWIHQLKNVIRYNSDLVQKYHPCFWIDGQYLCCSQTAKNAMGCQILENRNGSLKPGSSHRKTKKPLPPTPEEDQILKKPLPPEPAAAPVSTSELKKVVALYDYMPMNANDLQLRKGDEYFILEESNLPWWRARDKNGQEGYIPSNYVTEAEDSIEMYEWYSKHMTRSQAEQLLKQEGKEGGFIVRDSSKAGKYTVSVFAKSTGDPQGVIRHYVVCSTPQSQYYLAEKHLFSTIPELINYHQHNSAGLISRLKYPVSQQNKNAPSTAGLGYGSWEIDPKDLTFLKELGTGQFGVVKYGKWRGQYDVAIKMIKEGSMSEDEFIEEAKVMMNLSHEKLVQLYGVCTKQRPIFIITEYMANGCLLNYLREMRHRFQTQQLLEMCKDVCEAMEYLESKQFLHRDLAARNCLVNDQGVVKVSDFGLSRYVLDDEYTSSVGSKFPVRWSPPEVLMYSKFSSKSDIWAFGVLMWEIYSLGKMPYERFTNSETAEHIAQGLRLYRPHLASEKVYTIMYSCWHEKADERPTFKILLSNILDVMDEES
UniProt Q9UL54, sequence (whole entry, looked up): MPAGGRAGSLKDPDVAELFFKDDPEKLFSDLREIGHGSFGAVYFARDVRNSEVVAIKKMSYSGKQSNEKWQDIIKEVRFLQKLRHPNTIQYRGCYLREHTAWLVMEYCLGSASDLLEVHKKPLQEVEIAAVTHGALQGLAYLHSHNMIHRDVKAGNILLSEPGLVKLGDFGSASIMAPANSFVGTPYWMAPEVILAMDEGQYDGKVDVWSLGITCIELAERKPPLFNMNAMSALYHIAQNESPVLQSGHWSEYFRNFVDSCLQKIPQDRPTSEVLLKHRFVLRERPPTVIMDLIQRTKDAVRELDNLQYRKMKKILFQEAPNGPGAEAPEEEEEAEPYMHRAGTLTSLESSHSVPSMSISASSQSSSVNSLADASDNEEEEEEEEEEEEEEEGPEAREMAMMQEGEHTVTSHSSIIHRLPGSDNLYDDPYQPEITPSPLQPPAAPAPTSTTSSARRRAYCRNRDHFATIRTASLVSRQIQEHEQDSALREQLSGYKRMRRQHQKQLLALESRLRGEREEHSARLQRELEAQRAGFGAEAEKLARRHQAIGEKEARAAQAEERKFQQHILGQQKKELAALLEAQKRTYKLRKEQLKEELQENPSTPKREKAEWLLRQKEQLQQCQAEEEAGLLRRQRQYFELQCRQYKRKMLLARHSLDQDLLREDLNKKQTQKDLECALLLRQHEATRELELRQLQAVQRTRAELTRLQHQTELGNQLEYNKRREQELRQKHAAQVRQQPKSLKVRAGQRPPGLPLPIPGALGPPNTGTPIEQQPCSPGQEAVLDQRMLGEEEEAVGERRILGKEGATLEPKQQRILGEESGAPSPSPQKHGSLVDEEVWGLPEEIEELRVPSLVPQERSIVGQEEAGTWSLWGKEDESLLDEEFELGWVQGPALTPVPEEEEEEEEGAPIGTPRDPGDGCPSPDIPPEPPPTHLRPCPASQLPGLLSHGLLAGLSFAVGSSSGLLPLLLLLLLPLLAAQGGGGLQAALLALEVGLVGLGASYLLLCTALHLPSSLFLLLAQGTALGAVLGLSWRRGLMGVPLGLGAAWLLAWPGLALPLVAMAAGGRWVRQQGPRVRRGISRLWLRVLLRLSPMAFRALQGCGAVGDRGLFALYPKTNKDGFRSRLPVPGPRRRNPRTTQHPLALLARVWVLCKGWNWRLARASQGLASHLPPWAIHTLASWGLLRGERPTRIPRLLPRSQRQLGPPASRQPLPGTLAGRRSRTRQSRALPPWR
UniProt P42685, sequence (whole entry, looked up): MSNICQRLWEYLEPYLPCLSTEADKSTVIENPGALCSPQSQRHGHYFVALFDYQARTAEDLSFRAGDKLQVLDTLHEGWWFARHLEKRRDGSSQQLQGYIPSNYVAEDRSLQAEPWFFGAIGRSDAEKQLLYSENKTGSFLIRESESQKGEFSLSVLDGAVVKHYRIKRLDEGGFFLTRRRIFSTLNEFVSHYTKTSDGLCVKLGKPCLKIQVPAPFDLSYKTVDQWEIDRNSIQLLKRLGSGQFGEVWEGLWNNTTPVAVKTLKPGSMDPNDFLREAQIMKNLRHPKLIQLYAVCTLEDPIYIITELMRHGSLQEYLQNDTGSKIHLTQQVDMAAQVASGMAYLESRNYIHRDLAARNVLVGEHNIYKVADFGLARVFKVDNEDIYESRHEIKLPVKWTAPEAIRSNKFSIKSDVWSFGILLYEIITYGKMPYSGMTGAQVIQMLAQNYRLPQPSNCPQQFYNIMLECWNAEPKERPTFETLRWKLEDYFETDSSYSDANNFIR
UniProt P27361, sequence (whole entry, looked up): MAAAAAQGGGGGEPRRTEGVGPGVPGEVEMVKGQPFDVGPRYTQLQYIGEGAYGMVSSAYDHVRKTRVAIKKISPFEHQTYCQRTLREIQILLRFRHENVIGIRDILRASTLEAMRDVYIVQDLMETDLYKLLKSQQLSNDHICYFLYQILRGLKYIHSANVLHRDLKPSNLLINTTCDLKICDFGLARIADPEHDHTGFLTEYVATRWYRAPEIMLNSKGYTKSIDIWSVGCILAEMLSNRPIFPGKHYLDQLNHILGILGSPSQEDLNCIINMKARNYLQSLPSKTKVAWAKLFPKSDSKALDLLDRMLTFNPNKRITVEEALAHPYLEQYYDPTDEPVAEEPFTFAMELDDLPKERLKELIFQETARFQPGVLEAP
UniProt Q9HC98, sequence (whole entry, looked up): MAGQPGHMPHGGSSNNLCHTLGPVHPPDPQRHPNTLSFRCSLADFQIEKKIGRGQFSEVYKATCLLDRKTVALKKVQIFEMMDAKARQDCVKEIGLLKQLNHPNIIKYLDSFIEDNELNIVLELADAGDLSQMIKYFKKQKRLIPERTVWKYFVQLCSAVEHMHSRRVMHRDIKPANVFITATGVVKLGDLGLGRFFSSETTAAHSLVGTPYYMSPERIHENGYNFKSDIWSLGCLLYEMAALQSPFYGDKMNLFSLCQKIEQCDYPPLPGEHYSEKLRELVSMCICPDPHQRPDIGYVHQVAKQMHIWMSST
UniProt Q12866, sequence (whole entry, looked up): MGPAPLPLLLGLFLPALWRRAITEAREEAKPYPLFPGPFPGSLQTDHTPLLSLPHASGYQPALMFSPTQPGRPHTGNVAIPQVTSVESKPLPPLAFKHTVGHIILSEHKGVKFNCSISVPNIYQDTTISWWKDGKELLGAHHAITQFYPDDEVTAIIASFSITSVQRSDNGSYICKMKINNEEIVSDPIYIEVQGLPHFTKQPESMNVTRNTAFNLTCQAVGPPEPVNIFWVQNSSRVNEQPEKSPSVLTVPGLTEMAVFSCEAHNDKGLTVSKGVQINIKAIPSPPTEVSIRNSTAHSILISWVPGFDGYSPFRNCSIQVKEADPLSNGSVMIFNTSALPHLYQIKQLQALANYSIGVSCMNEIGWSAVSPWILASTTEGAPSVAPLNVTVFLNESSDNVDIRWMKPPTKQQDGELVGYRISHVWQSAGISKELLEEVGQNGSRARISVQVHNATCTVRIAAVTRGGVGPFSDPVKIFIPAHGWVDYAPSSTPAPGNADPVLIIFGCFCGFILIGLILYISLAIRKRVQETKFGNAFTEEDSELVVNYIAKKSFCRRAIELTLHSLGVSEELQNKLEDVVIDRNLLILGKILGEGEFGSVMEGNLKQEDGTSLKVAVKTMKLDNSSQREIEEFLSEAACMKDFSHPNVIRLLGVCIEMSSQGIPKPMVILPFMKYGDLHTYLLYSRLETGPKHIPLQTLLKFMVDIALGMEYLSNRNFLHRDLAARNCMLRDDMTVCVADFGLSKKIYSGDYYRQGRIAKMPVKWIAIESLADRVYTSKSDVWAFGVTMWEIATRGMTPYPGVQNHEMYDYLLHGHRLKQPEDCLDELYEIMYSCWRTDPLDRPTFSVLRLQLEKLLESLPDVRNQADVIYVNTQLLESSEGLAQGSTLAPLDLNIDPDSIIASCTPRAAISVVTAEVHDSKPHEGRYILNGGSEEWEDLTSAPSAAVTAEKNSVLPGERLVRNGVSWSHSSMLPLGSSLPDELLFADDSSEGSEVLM

Block 1 — read-out: cell-free assay; method: competition with immobilised ligand; concentration: 1 µM
Structure (SMILES): CN(C(=O)c1ccccc1)c1cc(N(C)c2ccc3c(c2)CCc2ccc(C(=O)NCCN4CCOCC4)cc2C3=O)ccc1F
| target | remaining binding [%] |
| --- | --- |
| Mitogen-activated protein kinase 12 (MAPK12, Homo sapiens, UniProt P53778) | 100 |
| Serine/threonine-protein kinase TAO2 (TAOK2, Homo sapiens, UniProt Q9UL54) | 83 |
| Tyrosine-protein kinase BTK (BTK, Homo sapiens, UniProt Q06187) | 100 |
| Ribosomal protein S6 kinase alpha-1, C-terminal kinase domain (RPS6KA1, Homo sapiens, UniProt Q15418) | 100 |
| NUAK family SNF1-like kinase 2 (NUAK2, Homo sapiens, UniProt Q9H093) | 100 |

Block 2 — method: RNA Bind-n-Seq; molecule type: RNA; matrix: in vitro; concentration: not given; relative to: input RNA pool; reading: higher = stronger binding
Target: RING finger protein unkempt homolog, zinc fingers 1-6, GST-SBP tag (UNK, Homo sapiens, UniProt Q9C0B0, residues 30-357)
Setting: RNA with constant flanks, human and mouse sites, ends assumed
Constant ends, left off below: GGGAGUUCUACAGUCCGACGAUC … CAACAGAGGAUUGAGCAUCA
Construct (chain): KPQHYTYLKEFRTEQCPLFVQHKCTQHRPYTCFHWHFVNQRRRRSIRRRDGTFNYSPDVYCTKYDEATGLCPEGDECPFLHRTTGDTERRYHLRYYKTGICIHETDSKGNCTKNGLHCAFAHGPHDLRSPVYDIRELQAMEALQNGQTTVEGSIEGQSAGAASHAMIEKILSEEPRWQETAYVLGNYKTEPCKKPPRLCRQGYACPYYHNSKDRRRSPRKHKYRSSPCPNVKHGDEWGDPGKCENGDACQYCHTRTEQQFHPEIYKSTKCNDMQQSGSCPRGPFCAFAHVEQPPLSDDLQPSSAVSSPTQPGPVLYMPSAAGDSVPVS
| Oligonucleotide | bound/input enrichment [ratio] |
| --- | --- |
| AAUAGAGAUUUGUCCACACCUGGCCUGGAGAAGGACAGUGGAGGGAAGACACCUGGUGACUUUAGCUAUGCCUAUCAAAAGCCUGAGGAAACAACCAGGUCCCCAGAUGAAGAAGAUUAU | 0.259 |
| GCCAUCGCCAUGCACUUCCACCUCUCCACCAGCCAGGUCCCUGCCAAGACAGACUGUGUCAUGUUCUUCGGGCCCGUGGUCCCCGACGGCUACGGUGUCUGCUAUAACCCCAUGGAGGCC | 0.157 |
| CAGAAAAACCUUUGUUUUGGUGUGCACAUCCAUUUUGUUUUUGCUUUAAUUUGUGUUCUGAGUAUUUGGUGCACAAUGGAAAUUAUAUUUUCUACUUUACUGUCUUCAAUUUGGUUAUAG | 0.264 |
| UCCCCAGCAGGUGGUGGGCUACUUCAAUACAUACAAACUCCUUCCUCCCAAGAACCCAGCCACGAAACAACAGAAGCAGUGACCACUUCAACAGAAUUCUUUUGUGUUAUGUGGAGCAAU | 0.511 |
| UUUACCAGUAAUGCCUUUAGAAAAUUAUCAAAUUCCUCUUCGAGUGUUUCACCCCUAAUUUUGUCUUCCAAUUUGCCUGUGAACAAUAAAACGGAACACAAUAAUAAUGACGCUAAACAG | 10 |
| UCCCUGCCCUUGGGGCCAAGCUUGGACCUCCUUGGCCCCGAACCCUGGUCCACCCCGGUUUGUCAGGGCUCCCAGUCCAGCGAGAUGCCACUUCCUAGCCUCAGAGCUGCUGGGCAGGGA | 0.285 |
| AUUUUCUAGGAUGUCUUCUGAGAUAGGAAGGGAGAAGAGCCAGGACUGGGGGUCAGCUGGACUAGGUGGAGUAUUUAAAGUGGAGUGGAUACGCAAAGAAAGCCUUCCCUUUCAGUUUGC | 0.564 |
| UUCUAGGGCUGGUUCCCGUCAUCUUCGGGAGCCGUGGAGCGUGGGGCGCCCACAAUUUGCGCGCUCUCUUUCUGCUGCUCCCCAGCUCUCGGAUACAGCCGACACCAUGGGUUUCGGAGA | 0.0531 |

Block 3 — Compound: Cn1cnc2cc3c(Nc4cccc(Br)c4)ncnc3cc21; read-out: enzyme activity; action: inhibitor; concentration: 0.5 µM; relative to: control
| target | remaining activity [%] |
| --- | --- |
| Wee1-like protein kinase (WEE1, Homo sapiens, UniProt P30291) | 106 |
| Serine/threonine-protein kinase Nek1 (NEK1, Homo sapiens, UniProt Q96PY6) | 97.9 |
| Rhodopsin kinase GRK7 (GRK7, Homo sapiens, UniProt Q8WTQ7) | 106 |
| Tyrosine-protein kinase FRK (FRK, Homo sapiens, UniProt P42685) | 93.6 |
| Ribosomal protein S6 kinase alpha-2 (RPS6KA2, Homo sapiens, UniProt Q15349) | 79.4 |
| Macrophage-stimulating protein receptor (MST1R, Homo sapiens, UniProt Q04912) | 96.5 |
| Tyrosine-protein kinase JAK3 (JAK3, Homo sapiens, UniProt P52333) | 106 |
| Serine/threonine-protein kinase Nek6 (NEK6, Homo sapiens, UniProt Q9HC98) | 98.1 |
| Tyrosine-protein kinase Mer (MERTK, Homo sapiens, UniProt Q12866) | 77.5 |
| Dual specificity mitogen-activated protein kinase kinase 2 (MAP2K2, Homo sapiens, UniProt P36507) | 101 |
| Angiopoietin-1 receptor (TEK, Homo sapiens, UniProt Q02763) | 98.9 |
| Mitogen-activated protein kinase 3 (MAPK3, Homo sapiens, UniProt P27361) | 109 |
| Mitogen-activated protein kinase kinase kinase 14 (MAP3K14, Homo sapiens, UniProt Q99558) | 90.6 |

Block 4 — method: universal PBM; molecule type: double-stranded DNA, one strand shown; matrix: in vitro; concentration: not given; reading: higher = stronger binding
Target: Sal-like protein 4, full length isoform B (SALL4, Homo sapiens, UniProt Q9UJQ4-2, residues 1-616)
Setting: 8-mer, flanks averaged, mean of replicates
| Oligonucleotide | E-score |
| --- | --- |
| AACGAAAC | 0.094 |
| CAAGCCTA | 0.0661 |
| GCCCGTCC | -0.372 |
| CAGTGCGA | -0.106 |
| AGGTAAGA | -0.0266 |
| CACGCTTC | -0.224 |
| TCACTTCA | -0.00836 |
| CCTCACAC | -0.125 |

Some of these lines once more (block 4):
| Oligonucleotide | E-score |
| --- | --- |
| CAGTGCGA | -0.106 |
| AGGTAAGA | -0.0266 |
| CACGCTTC | -0.224 |
| TCACTTCA | -0.00836 |
| CCTCACAC | -0.125 |
